Assay results from different studies.
Every numbered part comes from another study and shows a few of its results, in no order. Changes are numbered by the printed parent chain.

Block 1
Target: RNA binding protein fox-1 homolog 2, RRM domain, GST-SBP tag (RBFOX2, Homo sapiens, UniProt O43251-10, residues 100-194)
Technique: RNA Bind-n-Seq
Form: RNA
Sample: in vitro
Tested at: 365 nM
Setting: natural RNA segment, single round, ends assumed
Relative to: no-protein control
Reading: higher = stronger binding
Sequence	RBNS enrichment (R)
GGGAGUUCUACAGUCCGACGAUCGCCUUACCUCCUUCUAAUGGGUAAAGGGGCUUUCUUAUCAAGCAUGUCUGACAUCCCUGGAGAGGCUACGCUGUUCCAGGUGGCACUGGGAUGCCAGUUGGCAGCUGGAUUGGAAUUCUCGGGUGCCAA	0.682
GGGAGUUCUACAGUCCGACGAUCGUAGAAAUUCUCGAGUAUUUUGGUGUUGGAUAGAAUAUAGAACAUAGGGGAAAGAGACCAAACUGCCUGUAGUUAGUAACGAAGUAUGUAUGUUGUUCUUUUGUGUAUUUUGGAAUUCUCGGGUGCCAA	1.35
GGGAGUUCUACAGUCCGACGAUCCUUAAUUCAUAGCUGUCCUUGAUUUCAUAUUUGUUUGCAUUUAAUUUAUGUUUCUUUGGAUCCUCAUUGCCUCAAAGCAGCAUACUUAAUUUUUGUUUAUUUAUUGUGAGUGGAAUUCUCGGGUGCCAA	4.5
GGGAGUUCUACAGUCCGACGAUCGUCGGGUCUUGCUGACUUCUCUUCACUUGAGGUCACAUUUUUCCCCCGUGGGGAAAUAAACUGACUUUGGACUGCUUCAGUUUCUGCCAUCUUCCAUGACUGCUUCUAUUUGGAAUUCUCGGGUGCCAA	0.903
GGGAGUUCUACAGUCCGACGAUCCCUUCACACCGCCACCAACUAACCAAGCUUGGCCUCUGACUCCCGUCUCUGUGCUUGCCCCCAUCUCAGGGACCAUGAUGUCUCAGUCACUCCACGCUCCCCACAGGCCAUGGAAUUCUCGGGUGCCAA	0.964
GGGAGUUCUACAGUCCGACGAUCUUUACAAAUCAUAAUCAACAGAGCCCCAGGGGCAAAAUAGACAUUCUAUUUGUCAGCUGUUGCUGCUGAGCCUGCUGGUGAACACCAUUGCAAGCAGUUGCUGAGCCUGCUGGAAUUCUCGGGUGCCAA	1.17
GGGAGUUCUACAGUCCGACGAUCUCUUGUCAGAAGUGUCACUGCCAAGGGACCAGAGAGAGGCUGCUAAGAGCCUGGACAUGCCUACCCUGAAAGCAGCUGCCUUCAUUACCCUUUUCUGUGCGCCUGUUCUGUGGAAUUCUCGGGUGCCAA	0.431
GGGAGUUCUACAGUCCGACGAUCGGUGGGGCCUCGUGGUGCCUAGGAGAUGAAGAUGAGGUUUUCCUUACCGUGUAAAUGAAUAUUUGUAUGAUUAAAUUAACACACACAAAAAAAAAAACCCCGCCUUUAUCUGGAAUUCUCGGGUGCCAA	0.687

Block 2
Target: CCNA1, cyclin fold, Cln2 fusion (human)
Technique: yeast growth competition, sequencing
Sample: yeast
Setting: weak parent motif
Relative to: not given
Reading: higher = stronger binding
Parent: INSM1 docking peptide (human); PKAIRKLHFEDEV; partner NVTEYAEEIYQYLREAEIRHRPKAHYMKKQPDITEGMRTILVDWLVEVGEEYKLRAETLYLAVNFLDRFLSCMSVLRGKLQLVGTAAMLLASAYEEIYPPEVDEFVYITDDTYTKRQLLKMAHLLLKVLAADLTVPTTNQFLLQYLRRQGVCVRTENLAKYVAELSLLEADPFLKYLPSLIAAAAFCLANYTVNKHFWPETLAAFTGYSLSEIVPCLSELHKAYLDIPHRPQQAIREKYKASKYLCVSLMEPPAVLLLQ
Variant	normalised enrichment score
PKASRKLHFEDEV [I4S]	0.644
PHAIRKLHFEDEV [K2H]	0.408
PKAIRKLPFEDEV [H8P]	0.2
PAAIRKLHFEDEV [K2A]	0.272
PKAIRKLHFEAEV [D11A]	0.765
PKAIRKLHHEDEV [F9H]	0.313
PKAIRKLHFESEV [D11S]	0.614
PKAIMKLHFEDEV [R5M]	0.273
PKCIRKLHFEDEV [A3C]	1.25
PKAIRKLHNEDEV [F9N]	-0.0139
PKAIRKNHFEDEV [L7N]	0.172

Block 3
Target: Interferon regulatory factor 7, full length, phosphomimetic (IRF7, Homo sapiens, UniProt Q92985, residues 1-503, S471D/S472D/S475D/S476D/S477D/S483D/S484D/S487D)
UniProt Q92985, sequence (whole entry, unmodified, looked up): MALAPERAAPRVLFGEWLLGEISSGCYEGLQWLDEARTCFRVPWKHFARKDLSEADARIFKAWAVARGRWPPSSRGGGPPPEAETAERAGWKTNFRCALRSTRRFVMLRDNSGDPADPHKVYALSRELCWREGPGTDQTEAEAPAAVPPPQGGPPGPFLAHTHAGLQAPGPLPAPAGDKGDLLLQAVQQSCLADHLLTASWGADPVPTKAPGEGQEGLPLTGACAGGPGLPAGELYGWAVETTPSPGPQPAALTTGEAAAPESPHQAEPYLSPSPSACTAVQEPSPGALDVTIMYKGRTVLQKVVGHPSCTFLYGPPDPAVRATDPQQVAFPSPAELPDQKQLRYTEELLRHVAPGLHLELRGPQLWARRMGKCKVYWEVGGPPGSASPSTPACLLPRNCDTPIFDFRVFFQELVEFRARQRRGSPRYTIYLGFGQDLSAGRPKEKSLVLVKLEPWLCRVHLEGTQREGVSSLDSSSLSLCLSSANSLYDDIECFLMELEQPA
Technique: protein-binding microarray
Form: double-stranded DNA, one strand shown
Sample: in vitro
Tested at: 2200 nM top
Setting: 60-bp whole probe
Together with: salmon DNA 0.4 mg/ml
Relative to: random background probes
Reading: higher = stronger binding
Shared flanks, not repeated: GCCTAGCAC … GTCTTGATTCGCTTGACGCTGCTG
Sequence	fitted relative affinity [z-score]
TCAACTCCAGTTCTGGGACTGTGCTAG	0.463
GACGGACTGGACACTGGGGTCGTGCTA	-0.694
GACGATATCGGACTGGGGACGTGCTAG	-0.184
GACGATCTCAGTCTCGAGCCGTGCTAG	0.0116
TTAGATATCAGTCTCGGTTAGTGCTAG	0.835
TTAGGTTTCCTTCGCCTTTAGTGCTAG	1.42
AAATTCTGATATAATTCAAAGTGCTAG	-0.739
GACGGTATCATACTGCTGACGTGCTAG	0.523
TCACTTTTTTGTTCCACACTGTGCTAG	3.33
GGCCCAGGAGGAGGCCCCTCGTGCTAG	-1.67
GACGGTTTCGGGACTGGTGACGTGCTA	3.65
TCAGTTATTAAATTTTCAACTGTGCTA	0.00519
TCACTTTTCGCTTTCTTACTGTGCTAG	8.56

Single results of other studies
Substance	target	assay	system	conditions	scale	measurement	result
PhoQ, residues 284 288 289 292 302 303 SLCLSL	PhoP, residues 12 14 15 18 19 VQALL (Escherichia coli, UniProt P23836)	Sort-seq, measured: YFP reporter	E. coli	PhoQ-PhoP variant library, together with: 10 µM Mg2+	relative to: high Mg2+ state, higher = stronger signaling	fold induction	1.5
